Measured values gathered from unrelated publications.
Compare with care: the assays were run in different laboratories. Numbers after ± are the reported error.
NOX1: NADPH oxidase 1 (NOX1, Homo sapiens, UniProt Q9Y5S8)
NOX5: NADPH oxidase 5 (NOX5, Homo sapiens, UniProt Q96PH1)
CYBB: NADPH oxidase 2 (CYBB, Homo sapiens, UniProt P04839)
Neuronal acetylcholine receptor; alpha3/beta2: Neuronal acetylcholine receptor; alpha3/beta2 (Rattus norvegicus, UniProt P04757+P12390)
Salicylate synthetase, Irp9: Salicylate synthetase, Irp9 (Yersinia enterocolitica, UniProt Q9X9I8)
ache: Acetylcholinesterase (ache, Electrophorus electricus, UniProt O42275)

The chains behind the UniProt entries cited, without tags or fusion partners. Residues count along the entry.
UniProt Q96PH1, 1-719 isoform 4: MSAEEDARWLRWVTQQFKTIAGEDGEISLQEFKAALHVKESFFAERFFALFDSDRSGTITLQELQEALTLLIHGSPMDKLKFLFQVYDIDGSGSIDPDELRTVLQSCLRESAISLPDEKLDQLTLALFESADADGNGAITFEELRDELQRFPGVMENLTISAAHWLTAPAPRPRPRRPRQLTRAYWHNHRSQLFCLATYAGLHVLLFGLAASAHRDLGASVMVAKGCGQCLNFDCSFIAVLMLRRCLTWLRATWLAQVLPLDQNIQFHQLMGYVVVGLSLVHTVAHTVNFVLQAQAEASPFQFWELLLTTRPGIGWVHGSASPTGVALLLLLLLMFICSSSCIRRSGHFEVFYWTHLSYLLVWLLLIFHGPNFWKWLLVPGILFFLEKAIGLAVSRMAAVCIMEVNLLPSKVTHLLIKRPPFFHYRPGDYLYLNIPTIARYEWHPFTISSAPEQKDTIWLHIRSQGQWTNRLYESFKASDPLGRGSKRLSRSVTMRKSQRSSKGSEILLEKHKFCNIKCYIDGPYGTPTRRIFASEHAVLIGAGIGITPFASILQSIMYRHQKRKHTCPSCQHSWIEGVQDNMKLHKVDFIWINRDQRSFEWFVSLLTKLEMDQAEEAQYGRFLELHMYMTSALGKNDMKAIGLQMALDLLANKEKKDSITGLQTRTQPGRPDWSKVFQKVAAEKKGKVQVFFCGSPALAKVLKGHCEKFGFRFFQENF
UniProt P04839, whole entry, looked up: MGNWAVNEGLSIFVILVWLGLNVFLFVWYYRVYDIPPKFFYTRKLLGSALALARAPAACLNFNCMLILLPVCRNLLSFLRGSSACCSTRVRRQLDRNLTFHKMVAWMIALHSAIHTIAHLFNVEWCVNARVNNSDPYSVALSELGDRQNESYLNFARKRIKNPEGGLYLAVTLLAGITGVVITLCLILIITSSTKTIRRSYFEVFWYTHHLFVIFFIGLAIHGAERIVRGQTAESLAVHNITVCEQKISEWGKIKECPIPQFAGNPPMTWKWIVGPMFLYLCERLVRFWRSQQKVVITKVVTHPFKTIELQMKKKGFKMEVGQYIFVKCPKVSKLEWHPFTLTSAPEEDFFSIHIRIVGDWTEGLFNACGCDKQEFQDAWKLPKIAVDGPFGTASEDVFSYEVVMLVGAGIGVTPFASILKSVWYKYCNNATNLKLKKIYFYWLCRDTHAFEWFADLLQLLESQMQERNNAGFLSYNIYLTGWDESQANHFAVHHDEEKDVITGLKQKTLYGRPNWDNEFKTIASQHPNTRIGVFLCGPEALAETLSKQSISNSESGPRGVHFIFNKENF
UniProt P04757, 26-499 limits assumed: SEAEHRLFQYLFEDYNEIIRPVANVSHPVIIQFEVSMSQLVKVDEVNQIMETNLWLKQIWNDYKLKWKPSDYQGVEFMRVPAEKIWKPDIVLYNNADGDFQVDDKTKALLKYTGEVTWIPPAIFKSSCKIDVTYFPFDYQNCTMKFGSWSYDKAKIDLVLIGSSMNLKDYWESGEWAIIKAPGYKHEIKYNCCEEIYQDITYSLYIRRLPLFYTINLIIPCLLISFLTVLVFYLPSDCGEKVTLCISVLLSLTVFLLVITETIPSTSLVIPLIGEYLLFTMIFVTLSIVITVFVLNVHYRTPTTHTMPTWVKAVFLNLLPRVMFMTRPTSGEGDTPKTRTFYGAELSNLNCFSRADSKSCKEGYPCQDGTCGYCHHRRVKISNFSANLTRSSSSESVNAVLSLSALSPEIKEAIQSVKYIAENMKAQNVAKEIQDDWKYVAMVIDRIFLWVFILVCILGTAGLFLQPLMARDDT
UniProt P12390, 25-500 limits assumed: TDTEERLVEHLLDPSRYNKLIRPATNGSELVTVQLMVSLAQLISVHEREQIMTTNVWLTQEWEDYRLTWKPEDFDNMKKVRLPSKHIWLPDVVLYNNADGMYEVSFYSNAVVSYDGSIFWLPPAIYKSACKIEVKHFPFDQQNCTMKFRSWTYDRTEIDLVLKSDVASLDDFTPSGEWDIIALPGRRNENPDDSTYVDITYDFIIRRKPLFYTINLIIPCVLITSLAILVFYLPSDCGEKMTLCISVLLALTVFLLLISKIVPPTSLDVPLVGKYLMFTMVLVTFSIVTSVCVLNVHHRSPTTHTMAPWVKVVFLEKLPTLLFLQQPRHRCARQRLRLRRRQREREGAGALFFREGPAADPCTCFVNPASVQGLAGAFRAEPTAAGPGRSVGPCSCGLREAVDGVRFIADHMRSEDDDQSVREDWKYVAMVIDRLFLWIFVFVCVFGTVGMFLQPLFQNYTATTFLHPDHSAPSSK
UniProt Q51507, whole entry: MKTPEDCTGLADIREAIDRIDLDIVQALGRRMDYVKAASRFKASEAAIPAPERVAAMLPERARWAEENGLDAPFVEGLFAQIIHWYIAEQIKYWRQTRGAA
UniProt Q869C3, whole entry, looked up: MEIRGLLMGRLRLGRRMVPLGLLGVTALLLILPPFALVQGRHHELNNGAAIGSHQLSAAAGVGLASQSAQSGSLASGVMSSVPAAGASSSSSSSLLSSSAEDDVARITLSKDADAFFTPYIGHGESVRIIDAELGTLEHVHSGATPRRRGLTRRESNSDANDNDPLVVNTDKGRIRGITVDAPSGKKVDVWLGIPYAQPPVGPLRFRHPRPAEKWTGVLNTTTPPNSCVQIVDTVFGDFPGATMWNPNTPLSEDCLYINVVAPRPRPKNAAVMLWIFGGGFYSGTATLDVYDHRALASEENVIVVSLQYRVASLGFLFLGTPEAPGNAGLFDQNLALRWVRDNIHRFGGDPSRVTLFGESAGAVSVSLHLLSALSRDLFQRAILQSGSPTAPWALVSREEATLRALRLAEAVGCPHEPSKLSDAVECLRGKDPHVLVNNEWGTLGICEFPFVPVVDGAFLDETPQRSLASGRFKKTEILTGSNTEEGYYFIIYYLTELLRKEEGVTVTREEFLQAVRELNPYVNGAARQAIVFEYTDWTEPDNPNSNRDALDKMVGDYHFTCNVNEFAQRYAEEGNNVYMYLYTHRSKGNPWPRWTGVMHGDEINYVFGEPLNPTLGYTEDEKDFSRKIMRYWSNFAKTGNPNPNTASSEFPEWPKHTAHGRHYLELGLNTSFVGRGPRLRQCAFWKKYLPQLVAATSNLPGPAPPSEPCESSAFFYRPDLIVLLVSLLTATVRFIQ
UniProt P18507, whole entry, looked up: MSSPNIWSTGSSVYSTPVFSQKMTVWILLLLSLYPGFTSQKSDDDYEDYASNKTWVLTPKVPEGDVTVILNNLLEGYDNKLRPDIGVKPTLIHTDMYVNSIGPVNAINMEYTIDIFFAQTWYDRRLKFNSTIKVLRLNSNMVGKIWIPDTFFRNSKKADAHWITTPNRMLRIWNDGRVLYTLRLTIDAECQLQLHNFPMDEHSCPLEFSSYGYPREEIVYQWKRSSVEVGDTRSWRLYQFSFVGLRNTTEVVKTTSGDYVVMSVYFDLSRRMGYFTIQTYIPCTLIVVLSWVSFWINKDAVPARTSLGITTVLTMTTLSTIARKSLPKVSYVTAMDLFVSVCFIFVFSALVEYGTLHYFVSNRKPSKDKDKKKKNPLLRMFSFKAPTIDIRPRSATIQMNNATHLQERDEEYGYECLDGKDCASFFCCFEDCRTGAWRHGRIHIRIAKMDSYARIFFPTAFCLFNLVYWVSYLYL
UniProt P28472, whole entry, looked up: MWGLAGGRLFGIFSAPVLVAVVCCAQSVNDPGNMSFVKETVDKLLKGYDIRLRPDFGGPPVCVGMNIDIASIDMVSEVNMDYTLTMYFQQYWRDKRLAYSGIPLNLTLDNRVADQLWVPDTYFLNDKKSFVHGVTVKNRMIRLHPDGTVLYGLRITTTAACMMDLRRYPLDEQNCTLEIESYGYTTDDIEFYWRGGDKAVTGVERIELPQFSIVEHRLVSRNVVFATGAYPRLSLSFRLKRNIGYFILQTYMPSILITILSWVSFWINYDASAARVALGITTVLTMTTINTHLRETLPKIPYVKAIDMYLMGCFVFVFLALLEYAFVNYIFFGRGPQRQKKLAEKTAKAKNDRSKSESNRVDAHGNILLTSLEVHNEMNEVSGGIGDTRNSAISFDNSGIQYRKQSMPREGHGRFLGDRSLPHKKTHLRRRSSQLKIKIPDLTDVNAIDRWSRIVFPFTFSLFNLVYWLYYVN
UniProt Q9NRD9, whole entry, looked up: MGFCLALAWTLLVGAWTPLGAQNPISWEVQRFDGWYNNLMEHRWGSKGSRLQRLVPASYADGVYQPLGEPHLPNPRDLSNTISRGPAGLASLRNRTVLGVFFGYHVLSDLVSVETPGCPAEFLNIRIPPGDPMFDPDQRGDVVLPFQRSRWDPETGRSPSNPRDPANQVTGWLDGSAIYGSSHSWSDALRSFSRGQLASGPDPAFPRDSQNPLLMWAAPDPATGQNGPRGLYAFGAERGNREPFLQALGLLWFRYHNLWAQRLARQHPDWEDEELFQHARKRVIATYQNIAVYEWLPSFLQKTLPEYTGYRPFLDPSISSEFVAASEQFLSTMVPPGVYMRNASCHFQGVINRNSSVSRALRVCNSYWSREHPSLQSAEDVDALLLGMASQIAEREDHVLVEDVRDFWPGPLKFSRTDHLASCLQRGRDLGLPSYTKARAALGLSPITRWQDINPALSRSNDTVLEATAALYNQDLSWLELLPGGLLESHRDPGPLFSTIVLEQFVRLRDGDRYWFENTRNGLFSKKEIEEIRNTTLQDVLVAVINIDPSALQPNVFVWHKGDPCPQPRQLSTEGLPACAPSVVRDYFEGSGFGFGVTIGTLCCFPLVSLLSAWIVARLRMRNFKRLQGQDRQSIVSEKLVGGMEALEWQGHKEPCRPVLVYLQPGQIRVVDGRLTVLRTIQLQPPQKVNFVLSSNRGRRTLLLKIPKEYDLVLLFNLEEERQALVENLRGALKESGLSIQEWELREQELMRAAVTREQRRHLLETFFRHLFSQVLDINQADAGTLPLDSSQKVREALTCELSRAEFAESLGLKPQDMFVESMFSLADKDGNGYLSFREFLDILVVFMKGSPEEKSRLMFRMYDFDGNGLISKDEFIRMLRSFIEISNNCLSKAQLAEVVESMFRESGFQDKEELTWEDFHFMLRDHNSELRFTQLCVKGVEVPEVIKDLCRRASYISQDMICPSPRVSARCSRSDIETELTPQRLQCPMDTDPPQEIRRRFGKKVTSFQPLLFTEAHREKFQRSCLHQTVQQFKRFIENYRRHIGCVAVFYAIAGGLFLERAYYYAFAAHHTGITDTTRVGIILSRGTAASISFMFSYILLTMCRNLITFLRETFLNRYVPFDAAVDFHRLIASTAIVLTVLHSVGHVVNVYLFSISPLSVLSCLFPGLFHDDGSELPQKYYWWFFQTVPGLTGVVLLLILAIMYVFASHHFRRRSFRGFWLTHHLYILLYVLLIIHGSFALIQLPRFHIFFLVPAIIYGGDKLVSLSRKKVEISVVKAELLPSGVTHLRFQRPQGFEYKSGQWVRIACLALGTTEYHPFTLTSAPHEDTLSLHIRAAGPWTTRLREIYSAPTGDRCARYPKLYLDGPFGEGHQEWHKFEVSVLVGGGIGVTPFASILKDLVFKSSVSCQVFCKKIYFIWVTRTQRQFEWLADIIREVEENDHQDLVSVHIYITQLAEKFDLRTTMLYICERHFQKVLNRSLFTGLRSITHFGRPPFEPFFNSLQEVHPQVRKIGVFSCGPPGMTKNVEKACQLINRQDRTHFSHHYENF
UniProt P9WGR1, whole entry: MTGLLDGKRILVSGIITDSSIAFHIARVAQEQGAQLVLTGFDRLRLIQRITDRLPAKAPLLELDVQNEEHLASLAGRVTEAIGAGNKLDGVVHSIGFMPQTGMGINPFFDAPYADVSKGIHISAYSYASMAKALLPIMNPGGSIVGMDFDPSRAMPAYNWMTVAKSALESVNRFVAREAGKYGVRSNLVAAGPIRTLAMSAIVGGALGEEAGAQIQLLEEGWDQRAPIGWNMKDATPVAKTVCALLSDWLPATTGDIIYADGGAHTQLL
UniProt Q9GZZ6, 25-450 limits assumed: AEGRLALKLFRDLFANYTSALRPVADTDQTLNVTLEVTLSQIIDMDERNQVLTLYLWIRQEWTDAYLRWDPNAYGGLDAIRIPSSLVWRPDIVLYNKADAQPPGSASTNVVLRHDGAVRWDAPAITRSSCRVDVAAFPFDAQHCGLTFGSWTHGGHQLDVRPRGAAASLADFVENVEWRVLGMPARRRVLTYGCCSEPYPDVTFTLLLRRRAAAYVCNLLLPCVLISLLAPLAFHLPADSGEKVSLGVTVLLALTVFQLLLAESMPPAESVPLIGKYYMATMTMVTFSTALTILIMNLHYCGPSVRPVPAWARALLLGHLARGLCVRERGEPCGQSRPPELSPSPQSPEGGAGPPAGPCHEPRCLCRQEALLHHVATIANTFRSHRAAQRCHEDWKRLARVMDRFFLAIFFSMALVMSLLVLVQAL

| SMILES | target | test | test system | setting | IC50 [µM] |
| --- | --- | --- | --- | --- | --- |
| O=[N+]([O-])c1cc(S(=O)(=O)c2cc([N+](=O)[O-])c(O)c([N+](=O)[O-])c2)cc([N+](=O)[O-])c1O | pchB (Pseudomonas aeruginosa, UniProt Q51507) | pyruvate production, inhibitor, absorbance | – | 25 °C, added: isochorismate 10 µM | 0.07 ± 0.01 |
| c1ccc(Cn2nnc3c(Sc4nc5ncccc5o4)ncnc32)cc1 | NOX1 | enzyme activity, inhibitor, Amplex Red | cell-free membranes | – | 40 ± 5 |
| CNC(=O)Oc1ccc2c(c1)[C@]1(C)CCN(C)[C@@H]1N2C | Ace (Anopheles gambiae, UniProt Q869C3) | enzyme activity, inhibitor, Ellman | – | 10 min, room temperature, added: acetylthiocholine | 0.00827 |
| Cc1ccc2nc(Sc3ncnc4c3nnn4Cc3ccccc3)oc2c1 | NOX5 | enzyme activity, inhibitor, Amplex Red | cell-free membranes | – | 1.2 ± 0.1 |
| CN(CC1CCN(Cc2ccccc2)CC1)C(=O)c1cn(Cc2ccccc2Cl)nn1 | CHRNA7 (Homo sapiens, UniProt P36544) | ion current, antagonist | Xenopus oocytes | added: acetylcholine 60 µM | 3.7 |
| Clc1ccc2nc(Sc3ncnc4c3nnn4Cc3ccccc3)oc2c1 | CYBB | enzyme activity, inhibitor, MCLA chemiluminescence | cell-free membranes | – | > 100 |
| CC(C)C[C@@H]1NC(=O)[C@H](CCC(=O)O)NC(=O)[C@@H]2CCCN2C(=O)[C@H](Cc2c[nH]cn2)NC(=O)[C@H](CCCCC(=O)O)NC(=O)[C@H](CC(C)C)NC(=O)[C@H](Cc2c[nH]cn2)NC(=O)[C@@H]2CSSC[C@H](NC(=O)CN)C(=O)N[C@@H](CSSC[C@@H](C(N)=O)NC1=O)C(=O)N[C@@H](CO)C(=O)N[C@@H](Cc1c[nH]cn1)C(=O)N1CCC[C@H]1C(=O)N[C@@H](C)C(=O)N2 | Neuronal acetylcholine receptor; alpha3/beta2 | ion current, antagonist, two-electrode voltage clamp | Xenopus laevis oocytes | added: 100 µM acetylcholine | 0.00038 |
| COC(=O)Oc1c(Cl)cc2oc(=O)sc2c1[N+](=O)[O-] | Salicylate synthetase, Irp9 | pyruvate production, inhibitor | – | 25 °C, added: chorismate 10 µM | > 160 |
| CCC(=N\O)/C(C)=C/c1ccc(F)cc1 | Trpa1 (Mus musculus, UniProt Q8BLA8) | calcium influx, antagonist, FlexStation calcium | HEK-293T transfected | added: CS gas at EC50 | 0.47 |
| c1ccc(Cn2nnc3c(Sc4nc5ccccc5[nH]4)ncnc32)cc1 | NOX5 | enzyme activity, inhibitor, Amplex Red | cell-free membranes | – | 1.7 ± 0.3 |
| CC(C)C[C@@H]1NC(=O)[C@H](CCC(=O)O)NC(=O)[C@@H]2CCCN2C(=O)[C@H](Cc2c[nH]cn2)NC(=O)[C@H](CCC(=O)O)NC(=O)[C@H](CC(C)C)NC(=O)[C@H](Cc2c[nH]cn2)NC(=O)[C@@H]2CSSC[C@H](NC(=O)CN)C(=O)N[C@@H](CSSC[C@@H](C(N)=O)NC1=O)C(=O)N[C@@H](CO)C(=O)N[C@@H](Cc1c[nH]cn1)C(=O)N1CCC[C@H]1C(=O)N[C@@H](C)C(=O)N2 | Neuronal acetylcholine receptor; alpha3/beta2 | ion current, antagonist, two-electrode voltage clamp | Xenopus laevis oocytes | added: 100 µM acetylcholine | 0.00122 |
| COc1ccc2c(c1)c(CC(=O)OCCC(C)(C)C)c(C)n2C(=O)c1ccc(Cl)cc1 | ache | enzyme activity, inhibitor, Ellman | – | – | 9.75 ± 0.89 |
| CC(C)NCC(O)COc1ccc(CC(N)=O)cc1 (stereo not drawn) | Beta-1 adrenergic receptor, high-affinity state (Cavia porcellus, UniProt H0W3H1) | binding | lung membranes | high-affinity site, added: [3H]dihydroalprenolol 2 nM | 0.0006 |
| C=C(C)[C@@H]1[C@H]2OC(=O)[C@@H]1[C@]1(O)C[C@H]3O[C@]34C(=O)O[C@H]2[C@]14C | GABA-A receptor; alpha-2/beta-3/gamma-2 (Homo sapiens, UniProt P18507+P28472+P47869) | GABA-evoked current, inhibitor, whole-cell patch clamp | L929 | 3 min preincubation, added: 100 µM GABA (EC90) | 6.8 |
| FC(F)(F)c1ccc2nc(Sc3ncnc4c3nnn4Cc3ccccc3)oc2c1 | DUOX1 (Homo sapiens, UniProt Q9NRD9) | enzyme activity, inhibitor, Amplex Red | cell-free membranes | – | > 15 |
| C=C(C)[C@@H]1[C@H]2OC(=O)[C@@H]1[C@]1(O)C[C@H]3O[C@]34C(=O)O[C@H]2[C@]14C | GABA-A receptor; alpha-1/beta-3/gamma-2 (Homo sapiens, UniProt P14867+P18507+P28472) | chloride current, inhibitor, whole-cell voltage clamp | L929 | 3 min preincubation, added: GABA at EC90 | 3.7 |
| CN(C(=O)Cc1ccc(Cl)c(Cl)c1)C1CCCCC1N1CCCC1 (stereo not drawn) | PKD2L1 (Homo sapiens, UniProt Q9P0L9, F514A) | inhibitor | – | – | 1 |
| COP(=O)(OC)O/C(C)=C1/CCOC1=O | ACHE (Homo sapiens, UniProt P22303) | enzyme activity, inhibitor, Ellman | – | 30 min, 25 °C | > 1000 |
| CC[C@H](C)[C@H](NC(=O)[C@@H](NC(=O)[C@H](CC(=O)O)NC(=O)[C@H](CC(C)C)NC(=O)[C@H](CC(C)C)NC(=O)[C@H](CC(C)C)NC(=O)[C@H](CCCNC(=N)N)NC(=O)[C@H](CC(N)=O)NC(=O)[C@H](CC(N)=O)NC(=O)[C@H](C)NC(=O)[C@H](C)NC(=O)[C@H](CCC(N)=O)NC(=O)[C@H](CCC(N)=O)NC(=O)[C@H](CCCCN)NC(=O)[C@H](CCC(=O)O)NC(=O)[C@H](CCCCN)NC(=O)[C@H](CCC(=O)O)NC(=O)[C@H](CCC(N)=O)NC(=O)[C@H](CCCCN)NC(=O)[C@H](CCC(=O)O)NC(=O)[C@@H](NC(=O)[C@H](CCC(=O)O)NC(=O)[C@@H](NC(=O)[C@H](CCSC)NC(=O)[C@H](CCCCN)NC(=O)[C@H](CCCNC(=N)N)NC(=O)[C@H](CC(C)C)NC(=O)[C@H](CC(C)C)NC(=O)[C@H](Cc1c[nH]cn1)NC(=O)[C@H](N)Cc1ccccc1)[C@@H](C)CC)[C@@H](C)CC)[C@@H](C)O)C(N)=O | Corticotropin-releasing factor receptor 2/Corticotropin-releasing factor-binding protein (Homo sapiens, UniProt P24387+Q13324) | GTPγS binding, antagonist | – | added: CRF 1 µM | 0.298 ± 0.037 |
| CC(C)C[C@@H]1NC(=O)[C@H](CCC(=O)O)NC(=O)[C@@H]2CCCN2C(=O)[C@H](Cc2c[nH]cn2)NC(=O)[C@H](CC(N)=O)NC(=O)[C@H](C)NC(=O)[C@H](CO)NC(=O)[C@@H]2CSSC[C@H](NC(=O)CN)C(=O)N[C@@H](CSSC[C@@H](C(N)=O)NC1=O)C(=O)N[C@@H](CO)C(=O)N[C@@H](Cc1c[nH]cn1)C(=O)N1CCC[C@H]1C(=O)N[C@@H](C)C(=O)N2 | Neuronal acetylcholine receptor; alpha3/beta2 | ion current, antagonist, two-electrode voltage clamp | Xenopus laevis oocytes | added: 100 µM acetylcholine | 0.00337 |
| O=C(O)c1cccc(S(=O)(=O)Nc2ccccc2C(=O)O)c1 | Salicylate synthetase, Irp9 | pyruvate production, inhibitor | – | 25 °C, added: chorismate 10 µM | > 160 |
| COc1ccc2cc([C@H](C)C(=O)OCc3ccc(OC(=O)OCC[Si](C)(C)C)cc3)ccc2c1 | ache | enzyme activity, inhibitor, Ellman | – | – | 0.83 ± 0.15 |
| CC(C)C[C@@H]1NC(=O)[C@H](CCC(=O)O)NC(=O)[C@@H]2CCCN2C(=O)[C@H](Cc2c[nH]cn2)NC(=O)[C@H](CC(N)=O)NC(=O)[C@H](C(C)C)NC(=O)[C@H](Cc2c[nH]cn2)NC(=O)[C@@H]2CSSC[C@H](NC(=O)CN)C(=O)N[C@@H](CSSC[C@@H](C(N)=O)NC1=O)C(=O)N[C@@H](CO)C(=O)N[C@@H](Cc1c[nH]cn1)C(=O)N1CCC[C@H]1C(=O)N[C@@H](C)C(=O)N2 | Neuronal acetylcholine receptor; alpha3/beta2 | ion current, antagonist, two-electrode voltage clamp | Xenopus laevis oocytes | added: 100 µM acetylcholine | 0.0013 |
| COc1cccc2[nH]cc(CCN)c12 | Slc6a4 (Rattus norvegicus, UniProt P31652) | serotonin uptake, inhibitor | rat brain synaptosomes | – | 4.11 ± 0.261 |
| Cc1cccc2nc(Sc3ncnc4c3nnn4Cc3ccccc3)oc12 | NOX1 | enzyme activity, inhibitor, Amplex Red | cell-free membranes | – | > 100 |
| CC(C)Cc1cc(O)c(-c2cccc(Cl)c2)c(=O)[nH]1 | inhA (Mycobacterium tuberculosis, UniProt P9WGR1) | enzyme activity, inhibitor | – | – | 4.3 ± 0.5 |
| Brc1ccc2nc(Sc3ncnc4c3nnn4Cc3ccccc3)oc2c1 | NOX5 | enzyme activity, inhibitor, Amplex Red | cell-free membranes | – | 1.6 ± 0.1 |
| C[C@@H]1NC(=O)[C@H](CCCNC(=N)N)NC(=O)[C@H](CCCNC(=N)N)NC(=O)[C@H](Cc2c[nH]cn2)NC(=O)[C@H](CO)NC(=O)[C@@H]2CSSC[C@H](NC(=O)CN)C(=O)N[C@@H](CSSC[C@@H](C(N)=O)NC(=O)[C@H](CO)NC(=O)[C@H](CCCNC(=N)N)NC1=O)C(=O)N[C@@H](CO)C(=O)N[C@@H](Cc1c[nH]cn1)C(=O)N1CCC[C@H]1C(=O)N[C@@H](C)C(=O)N2 | Neuronal acetylcholine receptor; alpha9/alpha10 (Homo sapiens, UniProt Q9GZZ6+Q9UGM1) | ion current, antagonist, two-electrode voltage clamp | Xenopus oocytes | holding -70 mV, added: 100 µM acetylcholine | 1.29 |
| CC(C)c1ccc2nc(Sc3ncnc4c3nnn4Cc3ccccc3)oc2c1 | CYBB | enzyme activity, inhibitor, MCLA chemiluminescence | cell-free membranes | – | > 100 |
| CC(C)C[C@@H]1NC(=O)[C@H](CC(=O)O)NC(=O)[C@@H]2CCCN2C(=O)[C@H](Cc2c[nH]cn2)NC(=O)[C@H](CC(N)=O)NC(=O)[C@H](C(C)C)NC(=O)[C@H](CO)NC(=O)[C@@H]2CSSC[C@H](NC(=O)CN)C(=O)N[C@@H](CSSC[C@@H](C(N)=O)NC1=O)C(=O)N[C@@H](CO)C(=O)N[C@@H](Cc1c[nH]cn1)C(=O)N1CCC[C@H]1C(=O)N[C@@H](C)C(=O)N2 | Neuronal acetylcholine receptor; alpha3/beta2 | ion current, antagonist, two-electrode voltage clamp | Xenopus laevis oocytes | added: 100 µM acetylcholine | 0.0651 |

Some of these lines once more:
| SMILES | target | test | test system | setting | IC50 [µM] |
| --- | --- | --- | --- | --- | --- |
| FC(F)(F)c1ccc2nc(Sc3ncnc4c3nnn4Cc3ccccc3)oc2c1 | DUOX1 (Homo sapiens, UniProt Q9NRD9) | enzyme activity, inhibitor, Amplex Red | cell-free membranes | – | > 15 |
| Brc1ccc2nc(Sc3ncnc4c3nnn4Cc3ccccc3)oc2c1 | NOX5 | enzyme activity, inhibitor, Amplex Red | cell-free membranes | – | 1.6 ± 0.1 |
| COC(=O)Oc1c(Cl)cc2oc(=O)sc2c1[N+](=O)[O-] | Salicylate synthetase, Irp9 | pyruvate production, inhibitor | – | 25 °C, added: chorismate 10 µM | > 160 |
| C=C(C)[C@@H]1[C@H]2OC(=O)[C@@H]1[C@]1(O)C[C@H]3O[C@]34C(=O)O[C@H]2[C@]14C | GABA-A receptor; alpha-1/beta-3/gamma-2 (Homo sapiens, UniProt P14867+P18507+P28472) | chloride current, inhibitor, whole-cell voltage clamp | L929 | 3 min preincubation, added: GABA at EC90 | 3.7 |
